# Experimental data gathered from unrelated publications.
# Numbered parts are unrelated; each lists some results of a single study. Positions count from the first letter of the parent shown.

# Sample 1 — method: universal PBM; form: double-stranded DNA, one strand shown; matrix: in vitro; concentration: not given; reading: higher = stronger binding
# Target: Sal-like protein 4, full length isoform B (SALL4, Homo sapiens, UniProt Q9UJQ4-2, residues 1-616)
# Setting: 8-mer, flanks averaged, mean of replicates
Strand,E-score
AGGGGTAT,-0.0997
CAATTTCG,0.136
GCGGTTCA,-0.203
ACAGACCA,-0.095
CACCCCGG,-0.233
CGCTGCAA,0.00358
CATAGCCA,0.0527
GTTCTTCA,-0.0526
TTCTCCAA,0.0538
ATGAAACA,0.26
GCTGCCGA,-0.293
CACGAGGA,-0.152
GTGCGCTA,-0.105
TCTCTACA,0.126
ATTCAGCA,0.147
AAAACAAT,0.326
AATTGTTC,0.301
CAAGAAAA,0.147
GACGATAA,0.176
AGTACCGA,-0.116
CGGTACTA,-0.18
CCTCAAGC,-0.259
ACCTCATA,0.106
AAGAGTTG,0.0943
AAGAGTTA,0.0942

# Sample 2 — target: CEP164, C-terminal peptide (human); method: DHFR complementation, deep sequencing; matrix: yeast; reference: wild type; reading: higher = weaker binding
# Setting: single substitutions, model-inferred values
# Parent: PDZK1, PDZ domain 2 (human); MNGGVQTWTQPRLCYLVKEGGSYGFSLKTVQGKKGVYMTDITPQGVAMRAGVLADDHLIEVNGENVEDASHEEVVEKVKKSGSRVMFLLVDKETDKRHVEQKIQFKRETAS; partner HNRVKVYRF
Substitution,binding free energy change [kcal/mol]
K77F,0.272
R97C,-0.0462
E93R,-0.141
S22C,0.275
M38E,1.98
D56V,0.773
Q6I,0.0299
V78M,2.12
D95I,-0.0967
E93W,-0.159
E19K,-0.118
K102W,-0.0807
M38K,1.04
A47T,0.676
P43D,0.178
E73T,0.0837
S70M,0.0366
G35I,0.691
T94W,-0.0559
L27V,0.0716
Q10Y,0.308
D68N,-0.0358
K28I,-0.554
R97L,-0.149
M1G,-0.202

# Sample 3 — target: CCND3, cyclin fold, Cln2 fusion (human); method: yeast growth competition, sequencing; matrix: yeast; setting: weak parent motif; reference: not given; reading: higher = stronger binding
# Parent: RBL1 docking peptide (human); GSAKRRLFGEDPP
Substitution,normalised enrichment score
GSAWRRLFGEDPP [K4W],0.154
GSAKRRLAGEDPP [F8A],0.119
GSAKRRLFGEEPP [D11E],0.208
PSAKRRLFGEDPP [G1P],0.0602
GSAKRRLWGEDPP [F8W],0.0186
GSCKRRLFGEDPP [A3C],0.137
GSAKRRLKGEDPP [F8K],0.221
GSAKRWLFGEDPP [R6W],0.0607
GSAKRRLFGEDPK [P13K],0.0473
GSAKRFLFGEDPP [R6F],0.135
GSAKRRLTGEDPP [F8T],0.143
GSAKRRLFYEDPP [G9Y],0.0762
GSAKVRLFGEDPP [R5V],0.114
GSAYRRLFGEDPP [K4Y],0.121
GSAERRLFGEDPP [K4E],0.0677
ESAKRRLFGEDPP [G1E],0.101
GSDKRRLFGEDPP [A3D],0.0292
GSAKRRLFGEDFP [P12F],0.115
GSAKRPLFGEDPP [R6P],0.261
GSAKRRLFGEGPP [D11G],0.146
GAAKRRLFGEDPP [S2A],0.184
GSAKRRLFGELPP [D11L],0.19
GSAKRRIFGEDPP [L7I],0.218
GSAKRRLFGEDPH [P13H],0.213
GSAKRGLFGEDPP [R6G],0.0139

# Sample 4 — method: protein-binding microarray; form: double-stranded DNA, one strand shown; matrix: in vitro; concentration: 250 nM; setting: 60-bp whole probe; added: salmon DNA 0.4 mg/ml; reference: random background probes; reading: higher = stronger binding; constant ends, left off below: GCCTAGCAC … GTCTTGATTCGCTTGACGCTGCTG
# Target: Interferon regulatory factor 7, full length, phosphomimetic (IRF7, Homo sapiens, UniProt Q92985, residues 1-503, S101K/S471D/S472D/S475D/S476D/S477D/S483D/S484D/S487D)
# Construct (chain): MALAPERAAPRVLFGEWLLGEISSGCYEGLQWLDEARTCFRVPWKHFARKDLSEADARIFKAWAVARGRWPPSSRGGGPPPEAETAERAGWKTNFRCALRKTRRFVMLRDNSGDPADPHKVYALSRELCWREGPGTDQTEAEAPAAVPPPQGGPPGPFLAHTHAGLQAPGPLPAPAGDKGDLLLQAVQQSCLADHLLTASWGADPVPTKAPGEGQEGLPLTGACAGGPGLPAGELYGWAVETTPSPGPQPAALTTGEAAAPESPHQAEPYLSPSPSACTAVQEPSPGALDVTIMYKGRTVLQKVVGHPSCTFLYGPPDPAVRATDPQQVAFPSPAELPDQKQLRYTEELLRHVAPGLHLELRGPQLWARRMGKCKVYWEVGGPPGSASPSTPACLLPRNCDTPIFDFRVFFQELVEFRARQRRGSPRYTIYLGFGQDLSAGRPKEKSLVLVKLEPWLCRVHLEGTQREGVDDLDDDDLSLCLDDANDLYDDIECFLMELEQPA
Strand,log fluorescence
CACCACATTTTTTTCATTATGTGCTAG,0.465 z-score
ATATACCTGTATATCTTCAGGTGCTAG,0.811 z-score
TTAGGTTTCCTTCTCTTTTAGTGCTAG,2.94 z-score
TTAGGTATCGACATTGGGTTAGTGCTA,0.417 z-score
TTTCCCATGAGTCTCAATATGTGCTAG,3.11 z-score
GACGGTATCGACTTTGGGGACGTGCTA,0.477 z-score
GACGGTCTCCTCTTCCTGACGTGCTAG,0.0105 z-score
TTACGTCTCCTTTTCCTTTAGTGCTAG,1.45 z-score
TCATCTCCCATTATATTACTGTGCTAG,0.824 z-score
TTAGGTTTCGGACTTGGTTAGTGCTAG,3.94 z-score
TTAGGTATCGGTATCGGTTAGTGCTAG,2.87 z-score
TCAAATTTCCATTTTCTACTGTGCTAG,1.4 z-score
TTACGTATCGGTCTCGGTTAGTGCTAG,1.49 z-score
GACGAACTGAGTCTCGGGACGTGCTAG,-0.0282 z-score
TTAGATTTCCGGACTGGATTAGTGCTA,0.188 z-score
GACGGTTCCCTTTTACTGACGTGCTAG,3.64 z-score
TTAGATCTGAGTTTCGATTAGTGCTAG,7.34 z-score
TCATCTCTCTATTCAGAACTGTGCTAG,0.892 z-score
GACGAACTTAGTTTCGAGACGTGCTAG,5.78 z-score

# Sample 5 — target: NFE2, bZIP domain (human); method: DHFR protein complementation; matrix: yeast; reference: wild-type JUN-FOS pair; reading: higher = stronger binding
# Setting: single substitutions, most at no-binding floor
# Parent: JUN, bZIP domain (human); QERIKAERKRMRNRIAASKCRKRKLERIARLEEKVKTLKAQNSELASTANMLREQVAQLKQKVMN; partner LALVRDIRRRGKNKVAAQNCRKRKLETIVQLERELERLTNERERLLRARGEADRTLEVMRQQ
Substitution,binding fitness [natural log]
I28G,-1.42
K36C,-1.37
A40M,-1.36
N42D,-1.44
L38N,-1.59
A46V,-1.54
R53I,-1.4
V56E,-1.36
I28S,-1.43
M51A,-1.48
K39T,-1.24
S43W,-1.45
L52I,-1.47
T37P,-1.5
R30Q,-1.3
A46P,-1.56
L38H,-1.44
Q55N,-1.43
L38T,-1.5
L45K,-1.44
L45Y,-1.45
S43G,-1.45
A29V,-1.44
T48L,-1.49
L52F,-1.55

# Repeated from above (sample 4):
Strand,log fluorescence
ATATACCTGTATATCTTCAGGTGCTAG,0.811 z-score
TTAGGTTTCCTTCTCTTTTAGTGCTAG,2.94 z-score
TTAGGTATCGACATTGGGTTAGTGCTA,0.417 z-score
TTTCCCATGAGTCTCAATATGTGCTAG,3.11 z-score
GACGGTATCGACTTTGGGGACGTGCTA,0.477 z-score
GACGGTCTCCTCTTCCTGACGTGCTAG,0.0105 z-score
TTACGTCTCCTTTTCCTTTAGTGCTAG,1.45 z-score
TCATCTCCCATTATATTACTGTGCTAG,0.824 z-score
TTAGGTTTCGGACTTGGTTAGTGCTAG,3.94 z-score
